Results from different studies.
Numbered parts are unrelated; each lists some results of a single study.
Chain of UniProt O14730 (whole entry, looked up): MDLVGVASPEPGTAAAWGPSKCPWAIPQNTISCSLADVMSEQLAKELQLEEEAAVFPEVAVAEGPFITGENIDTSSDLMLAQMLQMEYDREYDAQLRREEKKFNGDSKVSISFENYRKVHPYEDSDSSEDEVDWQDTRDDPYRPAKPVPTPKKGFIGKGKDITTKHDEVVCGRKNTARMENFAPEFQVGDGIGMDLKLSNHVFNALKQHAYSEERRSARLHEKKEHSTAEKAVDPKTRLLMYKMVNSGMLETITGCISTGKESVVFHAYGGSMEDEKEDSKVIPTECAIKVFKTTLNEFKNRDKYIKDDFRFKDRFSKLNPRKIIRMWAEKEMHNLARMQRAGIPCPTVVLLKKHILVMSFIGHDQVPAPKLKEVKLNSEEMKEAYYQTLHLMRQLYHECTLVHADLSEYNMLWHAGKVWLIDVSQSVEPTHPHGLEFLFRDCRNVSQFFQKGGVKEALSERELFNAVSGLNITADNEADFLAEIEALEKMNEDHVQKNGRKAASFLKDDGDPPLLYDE
Chain of UniProt Q8WXR4 (whole entry, looked up): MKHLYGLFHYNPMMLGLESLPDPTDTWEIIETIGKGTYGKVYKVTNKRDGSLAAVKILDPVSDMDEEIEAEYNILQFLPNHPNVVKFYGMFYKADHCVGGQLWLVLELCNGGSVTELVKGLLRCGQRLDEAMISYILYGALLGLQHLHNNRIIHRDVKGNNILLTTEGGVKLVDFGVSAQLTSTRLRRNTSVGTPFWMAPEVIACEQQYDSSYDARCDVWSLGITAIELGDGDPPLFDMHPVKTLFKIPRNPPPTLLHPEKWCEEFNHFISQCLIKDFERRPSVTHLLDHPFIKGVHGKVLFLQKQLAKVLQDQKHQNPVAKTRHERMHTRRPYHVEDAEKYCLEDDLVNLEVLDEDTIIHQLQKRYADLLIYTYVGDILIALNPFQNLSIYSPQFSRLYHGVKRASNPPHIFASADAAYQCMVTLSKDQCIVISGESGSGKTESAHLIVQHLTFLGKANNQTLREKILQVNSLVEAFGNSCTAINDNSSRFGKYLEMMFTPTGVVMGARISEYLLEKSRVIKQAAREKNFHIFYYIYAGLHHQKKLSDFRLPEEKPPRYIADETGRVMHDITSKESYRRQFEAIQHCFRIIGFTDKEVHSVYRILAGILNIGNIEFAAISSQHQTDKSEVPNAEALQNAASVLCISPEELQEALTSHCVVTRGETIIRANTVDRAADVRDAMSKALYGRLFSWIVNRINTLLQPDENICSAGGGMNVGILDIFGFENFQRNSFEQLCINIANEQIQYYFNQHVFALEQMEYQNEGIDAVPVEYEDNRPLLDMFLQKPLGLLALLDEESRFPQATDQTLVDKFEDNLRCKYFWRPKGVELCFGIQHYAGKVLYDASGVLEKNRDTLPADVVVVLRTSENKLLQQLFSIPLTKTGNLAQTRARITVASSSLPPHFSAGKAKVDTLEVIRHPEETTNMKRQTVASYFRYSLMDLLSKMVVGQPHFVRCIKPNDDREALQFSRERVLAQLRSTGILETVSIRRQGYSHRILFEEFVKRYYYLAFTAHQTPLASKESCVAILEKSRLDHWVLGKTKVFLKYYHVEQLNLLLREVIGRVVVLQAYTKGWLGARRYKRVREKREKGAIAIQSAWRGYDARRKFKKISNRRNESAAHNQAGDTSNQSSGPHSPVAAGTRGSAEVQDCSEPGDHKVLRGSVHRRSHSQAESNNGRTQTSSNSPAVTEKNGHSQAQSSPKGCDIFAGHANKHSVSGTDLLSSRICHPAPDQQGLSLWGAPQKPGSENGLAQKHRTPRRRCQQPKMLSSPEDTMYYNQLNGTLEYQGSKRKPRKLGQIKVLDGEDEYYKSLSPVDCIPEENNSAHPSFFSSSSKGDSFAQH
Chain of UniProt Q14012 (whole entry, looked up): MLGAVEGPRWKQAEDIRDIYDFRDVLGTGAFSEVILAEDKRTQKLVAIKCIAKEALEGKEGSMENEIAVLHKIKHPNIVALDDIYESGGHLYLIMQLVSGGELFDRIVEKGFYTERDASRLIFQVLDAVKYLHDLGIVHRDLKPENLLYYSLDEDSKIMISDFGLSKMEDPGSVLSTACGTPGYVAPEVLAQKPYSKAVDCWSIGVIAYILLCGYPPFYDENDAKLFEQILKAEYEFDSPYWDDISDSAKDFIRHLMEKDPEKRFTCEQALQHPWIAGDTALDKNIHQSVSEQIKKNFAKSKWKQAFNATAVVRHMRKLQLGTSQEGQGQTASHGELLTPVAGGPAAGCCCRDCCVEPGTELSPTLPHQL
Chain of UniProt Q8NEV4 (whole entry, looked up): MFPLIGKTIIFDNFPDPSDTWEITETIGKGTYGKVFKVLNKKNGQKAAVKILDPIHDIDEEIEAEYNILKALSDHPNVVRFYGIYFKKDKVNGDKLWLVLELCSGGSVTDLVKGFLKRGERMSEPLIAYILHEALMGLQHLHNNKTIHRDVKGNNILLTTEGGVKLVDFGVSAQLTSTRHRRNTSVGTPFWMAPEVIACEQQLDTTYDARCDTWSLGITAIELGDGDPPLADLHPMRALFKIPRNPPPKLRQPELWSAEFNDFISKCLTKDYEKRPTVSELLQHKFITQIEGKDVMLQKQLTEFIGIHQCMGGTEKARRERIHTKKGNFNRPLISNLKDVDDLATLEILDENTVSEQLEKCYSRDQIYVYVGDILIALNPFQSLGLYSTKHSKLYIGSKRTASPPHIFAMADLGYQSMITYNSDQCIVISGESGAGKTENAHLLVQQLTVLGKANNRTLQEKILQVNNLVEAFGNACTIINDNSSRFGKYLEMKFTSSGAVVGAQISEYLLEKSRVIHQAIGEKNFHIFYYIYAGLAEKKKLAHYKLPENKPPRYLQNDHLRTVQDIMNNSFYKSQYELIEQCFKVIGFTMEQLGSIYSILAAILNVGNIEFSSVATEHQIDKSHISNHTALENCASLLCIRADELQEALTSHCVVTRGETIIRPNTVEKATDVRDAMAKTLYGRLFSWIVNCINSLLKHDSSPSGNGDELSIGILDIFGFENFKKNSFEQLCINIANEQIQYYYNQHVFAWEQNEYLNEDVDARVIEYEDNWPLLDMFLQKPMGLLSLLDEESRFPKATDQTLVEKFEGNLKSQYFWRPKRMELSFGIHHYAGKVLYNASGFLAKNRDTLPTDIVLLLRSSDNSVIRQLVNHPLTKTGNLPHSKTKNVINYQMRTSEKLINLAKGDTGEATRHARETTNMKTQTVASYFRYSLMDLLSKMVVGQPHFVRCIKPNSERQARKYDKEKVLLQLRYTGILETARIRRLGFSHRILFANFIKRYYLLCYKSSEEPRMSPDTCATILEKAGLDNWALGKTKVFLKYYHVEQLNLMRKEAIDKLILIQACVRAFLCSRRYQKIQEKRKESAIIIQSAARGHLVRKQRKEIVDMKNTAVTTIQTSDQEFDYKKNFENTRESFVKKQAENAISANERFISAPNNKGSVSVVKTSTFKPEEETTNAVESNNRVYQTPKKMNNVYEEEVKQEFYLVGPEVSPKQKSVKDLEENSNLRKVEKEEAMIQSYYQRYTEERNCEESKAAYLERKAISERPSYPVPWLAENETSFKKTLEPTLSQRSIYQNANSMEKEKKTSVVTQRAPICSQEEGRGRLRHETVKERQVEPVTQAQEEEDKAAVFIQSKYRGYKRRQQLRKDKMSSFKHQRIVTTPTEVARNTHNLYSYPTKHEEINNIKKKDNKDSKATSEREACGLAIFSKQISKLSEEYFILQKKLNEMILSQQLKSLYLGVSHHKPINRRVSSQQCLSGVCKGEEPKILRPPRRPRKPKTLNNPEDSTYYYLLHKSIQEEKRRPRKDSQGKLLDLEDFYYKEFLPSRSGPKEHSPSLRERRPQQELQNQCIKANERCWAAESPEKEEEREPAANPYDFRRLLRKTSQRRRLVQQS
Chain of UniProt P42685 (whole entry, looked up): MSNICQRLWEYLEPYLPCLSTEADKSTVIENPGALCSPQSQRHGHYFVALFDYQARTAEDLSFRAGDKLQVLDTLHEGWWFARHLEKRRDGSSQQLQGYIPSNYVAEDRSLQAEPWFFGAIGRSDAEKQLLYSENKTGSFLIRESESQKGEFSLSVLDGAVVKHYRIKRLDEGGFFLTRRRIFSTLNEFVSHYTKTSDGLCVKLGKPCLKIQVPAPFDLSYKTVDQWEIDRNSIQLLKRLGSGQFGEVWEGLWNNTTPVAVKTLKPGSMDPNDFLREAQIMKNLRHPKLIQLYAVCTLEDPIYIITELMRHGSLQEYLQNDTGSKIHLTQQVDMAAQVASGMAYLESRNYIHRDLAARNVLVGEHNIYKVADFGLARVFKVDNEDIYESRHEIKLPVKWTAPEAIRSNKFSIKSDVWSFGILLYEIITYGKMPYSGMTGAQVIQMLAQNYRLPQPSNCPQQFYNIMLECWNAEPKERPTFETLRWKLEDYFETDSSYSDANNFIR
Chain of UniProt P11802 (whole entry, looked up): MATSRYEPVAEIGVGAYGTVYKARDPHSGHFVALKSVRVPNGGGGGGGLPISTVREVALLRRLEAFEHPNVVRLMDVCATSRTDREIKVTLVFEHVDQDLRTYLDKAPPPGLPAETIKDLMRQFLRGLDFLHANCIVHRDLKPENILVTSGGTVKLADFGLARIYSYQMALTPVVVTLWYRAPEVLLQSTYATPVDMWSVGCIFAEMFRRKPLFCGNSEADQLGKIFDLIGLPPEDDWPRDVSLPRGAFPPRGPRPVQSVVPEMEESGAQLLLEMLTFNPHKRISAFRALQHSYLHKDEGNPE

Sample 1 — technique: RNAcompete; molecule type: RNA; sample: in vitro; tested at: 20 nM; setting: 7-mer, probes averaged, single round; baseline: mean of 7-mers; direction: higher = stronger binding
Target: PABPC1L2, full length, GST fusion (mouse, UniProt A0ABA7IW68)
Residues (chain): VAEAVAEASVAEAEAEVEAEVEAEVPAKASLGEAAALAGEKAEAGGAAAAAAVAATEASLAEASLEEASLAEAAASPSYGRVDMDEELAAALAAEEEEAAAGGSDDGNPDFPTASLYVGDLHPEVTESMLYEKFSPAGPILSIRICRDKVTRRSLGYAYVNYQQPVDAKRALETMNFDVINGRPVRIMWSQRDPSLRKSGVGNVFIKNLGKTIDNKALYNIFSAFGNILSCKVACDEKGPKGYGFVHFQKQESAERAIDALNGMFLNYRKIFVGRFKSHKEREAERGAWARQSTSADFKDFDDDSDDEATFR
| Strand | 7-mer Z-score |
| --- | --- |
| CAUAAUA | -0.106 |
| AGUCCGG | -0.18 |
| AACGCUU | -0.00652 |
| AGAUGAA | -0.0554 |
| AGGAUGG | 0.314 |
| CAUUGGC | -0.219 |
| ACAGGAC | 0.352 |
| UCAGGCA | 0.0134 |

Sample 2 — technique: RNA Bind-n-Seq; molecule type: RNA; sample: in vitro; tested at: 15 pmol; setting: 4-mer, random 30-nt RNA, single round; added: 3 µM DMDA-PatA, 2 mM AMP-PNP; baseline: input library; direction: higher = stronger binding
Target: Eukaryotic initiation factor 4A-I (EIF4A1, Homo sapiens, UniProt P60842, residues 1-406, full length assumed)
Chain of UniProt P60842 (whole entry, looked up): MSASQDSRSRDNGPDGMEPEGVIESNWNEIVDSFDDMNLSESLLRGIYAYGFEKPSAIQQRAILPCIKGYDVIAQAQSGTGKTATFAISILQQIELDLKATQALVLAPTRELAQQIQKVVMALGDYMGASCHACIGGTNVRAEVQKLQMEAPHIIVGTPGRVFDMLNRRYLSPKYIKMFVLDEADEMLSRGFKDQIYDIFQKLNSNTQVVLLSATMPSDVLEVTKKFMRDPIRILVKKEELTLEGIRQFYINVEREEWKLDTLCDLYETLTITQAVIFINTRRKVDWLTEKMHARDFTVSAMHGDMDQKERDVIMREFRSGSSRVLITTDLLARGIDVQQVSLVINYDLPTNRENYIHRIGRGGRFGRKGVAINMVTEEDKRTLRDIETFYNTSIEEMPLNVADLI
| Strand | 4-mer enrichment [fold] |
| --- | --- |
| CCCC | 0.467 |
| UAAU | 1.22 |
| GGUC | 0.864 |
| CUAA | 1.03 |
| UACA | 0.969 |
| CAAG | 0.67 |
| GGGC | 1.56 |
| UCAA | 0.493 |

Sample 3 — effect on: enzyme activity; action: inhibitor; tested at: 0.5 µM; baseline: control
SMILES: CCCNC(=O)Nc1ccc(Oc2ncnc3cc(OC)c(OC)cc23)cc1Cl
| target | remaining activity [%] |
| --- | --- |
| LCK (Homo sapiens, UniProt P06239) | 81.8 |
| TAOK2 (Homo sapiens, UniProt Q9UL54) | 94.5 |
| MERTK (Homo sapiens, UniProt Q12866) | 67.7 |
| EPHA3 (Homo sapiens, UniProt P29320) | 98.5 |
| CSNK1G3 (Homo sapiens, UniProt Q9Y6M4) | 105 |
| MAP3K5 (Homo sapiens, UniProt Q99683) | 102 |
| FRK (Homo sapiens, UniProt P42685) | 87.2 |
| JAK3 (Homo sapiens, UniProt P52333) | 88.9 |
| MAP3K14 (Homo sapiens, UniProt Q99558) | 109 |
| TEK (Homo sapiens, UniProt Q02763) | 87 |
| NEK1 (Homo sapiens, UniProt Q96PY6) | 91.8 |
| FGFR3 (Homo sapiens, UniProt P22607) | 84.5 |
| TBK1 (Homo sapiens, UniProt Q9UHD2) | 90 |
| NEK6 (Homo sapiens, UniProt Q9HC98) | 105 |

Sample 4 — technique: competition with immobilised ligand; tested at: 1 µM
SMILES: CNC(=O)Nc1ccc2c(c1)[C@@]1(CC2)OC(=O)N(CC(=O)N(Cc2ccc(F)cc2)[C@@H](C)C(F)(F)F)C1=O
| target | effect on | remaining binding |
| --- | --- | --- |
| FLT3 (Homo sapiens, UniProt P36888, D835Y) | cell-free assay | 96% |
| RIOK3 (Homo sapiens, UniProt O14730) | cell-free assay | 100% |
| Myosin-IIIa (MYO3A, Homo sapiens, UniProt Q8NEV4) | binding | 100% |
| Aurora kinase A (AURKA, Homo sapiens, UniProt O14965) | cell-free assay | 79% |
| Myosin-IIIb (MYO3B, Homo sapiens, UniProt Q8WXR4) | binding | 100% |
| MAPKAPK5 (Homo sapiens, UniProt Q8IW41) | cell-free assay | 86% |
| CDK2 (Homo sapiens, UniProt P24941) | cell-free assay | 100% |
| CAMK2D (Homo sapiens, UniProt Q13557) | cell-free assay | 100% |
| CAMKK2 (Homo sapiens, UniProt Q96RR4) | cell-free assay | 99% |
| ROCK2 (Homo sapiens, UniProt O75116) | cell-free assay | 95% |
| Cyclin-dependent kinase 4, with cyclin D3 (CDK4, Homo sapiens, UniProt P11802) | cell-free assay | 100% |
| INSRR (Homo sapiens, UniProt P14616) | cell-free assay | 100% |
| SGK2 (Homo sapiens, UniProt Q9HBY8) | cell-free assay | 88% |
| CAMK1 (Homo sapiens, UniProt Q14012) | cell-free assay | 100% |
| CAMK2B (Homo sapiens, UniProt Q13554) | cell-free assay | 100% |

Some of these lines once more (sample 2):
| Strand | 4-mer enrichment [fold] |
| --- | --- |
| CCCC | 0.467 |
| UAAU | 1.22 |
| GGUC | 0.864 |
| CUAA | 1.03 |
| UACA | 0.969 |
| CAAG | 0.67 |
